Published values of several laboratories.
Each line is one published result; not all experiments were run side by side. Numbers after ± are the reported error.
crk3 with CYC6: crk3, with CYC6 (Leishmania mexicana, UniProt O15851)
Urease: Urease (Canavalia ensiformis, UniProt P07374)
SYK tandem SH2 domains: Tyrosine-protein kinase SYK, tandem SH2 domains (SYK, Homo sapiens, UniProt P43405)
PDE1C: Dual specificity calcium/calmodulin-dependent 3',5'-cyclic nucleotide phosphodiesterase 1C (PDE1C, Homo sapiens, UniProt Q14123)
Proteasome subunit beta type-10: Proteasome subunit beta type-10 (Homo sapiens, UniProt P40306)
STING1 H232R: Stimulator of interferon genes protein (STING1, Homo sapiens, UniProt Q86WV6, H232R)
SNCA pre-formed fibrils: Alpha-synuclein, pre-formed fibrils (SNCA, Homo sapiens, UniProt P37840)

SMILES	tested on	test	system	setting	how to read	measurement	value
O=C(Nc1cc(-c2c(F)cccc2F)[nH]n1)C1CCC1	crk3 with CYC6	enzyme activity, inhibitor, radiometric	–	added: Leishmania major CYC6 cyclin, 1 µM ATP	–	IC50	1.3 µM
Cc1ccc(NS(=O)(=O)c2c(C(=O)N3CCCC3)c(C)n(C)c2C)cc1Cl	DRD2 (Homo sapiens, UniProt P14416)	–	–	–	–	IC50	> 100 µM
COc1ccc2c(c1)CN(C(=O)CCN1CCC(Cc3ccccc3)CC1)CCS2	Potassium voltage-gated channel subfamily KQT member 1, with KCNE1 (KCNQ1, Homo sapiens, UniProt P51787)	IKs current, inhibitor, whole-cell patch clamp	stable cell line	–	–	IC50	28.1 µM
CCn1nc(Cl)c2c1-c1cnc(N)c(c1)O[C@H](C)c1cc(F)ccc1-c1nn(C)cc1C2	FRK (Homo sapiens, UniProt P42685)	enzyme activity, inhibitor, radiometric	–	–	–	IC50	0.895 µM
COc1cc(OC)c(/N=N/c2ccc(C(=O)NO)cc2F)c(OC)c1	Urease	enzyme activity, inhibitor, absorbance	–	pH 7.3	–	IC50	38 µM
CC(C)c1nnc(S)[nH]1	SYK tandem SH2 domains	binding, inhibitor, TR-FRET	–	added: FITC-FCER1G phospho-ITAM peptide	–	IC50	12.5 ± 0.57 µM
CCOc1cc(CN2CC3(CC(N4CCC(C(=O)O)CC4)=NO3)C2)cc(OCC)c1-c1ccc(F)cc1	SSTR5 (Homo sapiens, UniProt P35346, Q99A)	cAMP level, antagonist, GloSensor	AD293	Q99A mutant, bandwidth 2.63, added: CST17 EC80 and forskolin	–	IC50	2.19 µM
CCN(CC)CC(=O)Nc1cccc(-n2cc(-c3ccc4ccc(-c5cn(-c6cccc(NC(=O)CN(CC)CC)c6)nn5)cc4c3)nn2)c1	MKNK2 (Homo sapiens, UniProt Q9HBH9)	enzyme activity, inhibitor	–	–	–	IC50	> 10 µM
O=C1C(Cl)=C(NCCN2CCOCC2)C(=O)c2ncccc21	SETD2 (Homo sapiens, UniProt Q9BYW2)	enzyme activity, inhibitor	–	–	–	IC50	1.5 µM
CC(C)(C)n1ncc2c(=O)n(Cc3cccc(F)c3)c(NCc3ccncc3)nc21	PDE1C	enzyme activity, inhibitor, radiometric	–	–	–	IC50	0.0079 µM
CC(=O)c1cnc2ccc(-c3cc(Cl)c(O)c(Cl)c3)nc2c1N[C@H]1CC[C@H](CN(C)C)CC1	Receptor-like protein kinase FERONIA (FER, Arabidopsis thaliana, UniProt Q9SCZ4, Y612A)	kinase activity, inhibitor, ADP-Glo	–	60 min, added: 50 µM ATP	–	IC50	1.44 µM
Cc1nn(-c2cccc(N)c2)c(=O)c2cnc(Nc3ccc(N4CCNCC4)cc3)nc12	DCLK2 (Homo sapiens, UniProt Q8N568)	enzyme activity, inhibitor	–	–	–	IC50	> 10 µM
CC(C)C[C@H](NC(=O)[C@H](Cc1ccc(CN)cc1)NC(=O)[C@H](Cc1ccccc1)N=[N+]=[N-])C(=O)N[C@@H](CC1CCC2CCCCC2C1)C(=O)[C@@]1(C)CO1 (stereo partly drawn)	Proteasome subunit beta type-10	inhibitor, biochemical	–	–	–	IC50	0.206 µM
CC(C)C[C@H](NC(=O)[C@@H](NC(=O)[C@H](Cc1ccccc1)NC(=O)c1ccc(C(C)(C)C)cc1)C(C)(C)C)C(=O)N[C@@H](CCCCN(C)C1CC2CCC1C2)C(=O)N[C@@H](CO)C(N)=O (stereo partly drawn)	Chromobox protein homolog 7 (Homo sapiens, UniProt O95931)	ligand displacement, TR-FRET	–	–	–	IC50	> 30 µM
O=C(N[C@@H](CCNC(=O)c1ccc([N+](=O)[O-])o1)c1nc2ccccc2[nH]1)c1cnn(-c2ccccc2)c1	STING1 H232R	reporter gene, inhibitor	THP1-Dual KI-hSTING-R232	24 h, 1 h preincubation, added: diABZI 500 nM	–	EC50	14.7 µM
O=C(Nc1cc(-c2ccc(Cl)cc2)[nH]n1)C1CC1	crk3 with CYC6	enzyme activity, inhibitor, radiometric	–	added: Leishmania major CYC6 cyclin, 1 µM ATP	–	IC50	1.5 µM
COC1CN([C@H]2CC[C@H]([C@@]3(C)Oc4c(Cl)cc(C(=O)NCc5c(SC)cc(C)[nH]c5=O)c(C)c4O3)CC2)C1	–	RNA-seq, item: IGSF3 mouse homolog	mouse, HT-1376 xenograft, whole blood	dose not given	relative to: vehicle	log2 fold change	1.47
O=C(Nc1cc(-c2cccnc2)[nH]n1)C1CCC1	crk3 with CYC6	enzyme activity, inhibitor, radiometric	–	added: Leishmania major CYC6 cyclin, 1 µM ATP	–	IC50	20 µM
Nc1ncc(-c2cc(-c3cnn(CC(F)(F)F)c3)ncc2F)nc1C(=O)NC1CNCC(F)C1 (stereo not drawn)	DCAMKL2	KINOMEscan	–	1 µM	relative to: DMSO control	remaining binding	100%
CC(C)C[C@H](NC(=O)[C@H](Cc1ccc(CN)cc1)NC(=O)[C@H](Cc1ccccc1)N=[N+]=[N-])C(=O)N[C@@H](CC1CCC(C2CCCCC2)CC1)C(=O)[C@@]1(C)CO1 (stereo partly drawn)	Proteasome subunit beta type-10	inhibitor, biochemical	–	–	–	IC50	3.62 µM
Cc1ccc(Nc2cc(NC3CC3)n3ncc(C#N)c3n2)cc1NC(=O)C1CC1	SGK1 (Homo sapiens, UniProt O00141)	inhibitor	–	–	–	IC50	> 10 µM

SMILES	tested on	test	system	setting	how to read	measurement	value
O=C(Nc1ccc(C(=O)NO)cc1)OCc1ccc2ccccc2c1	SNCA pre-formed fibrils	binding to mouse LAG3 D1, inhibitor, ELISA	–	added: FLAG-α-syn PFFs 100 nM	–	IC50	4.94 µM
CC(C)=CCc1cc(C(=O)/C=C/c2ccc(O)cc2)c(O)cc1O	–	phase I metabolism, substrate	monkey liver microsomes	–	–	substrate inhibition constant	29.6 ± 5.71 µM
Cc1ncsc1-c1ccc(C(C)NC(=O)C2CC(O)CN2C(=O)C(NC(=O)CCCCCCCCCCN2CCCC(Nc3ncc(Cl)c(Nc4ccccc4S(=O)(=O)C(C)C)n3)C2)C(C)(C)C)cc1 (stereo not drawn)	22Rv1	RNA-seq, item: TCAF1 mRNA	–	concentration not given	relative to: DMSO	log2 fold change	-1.23
Fc1ccc(Nc2nc(NC3CCCCC3)c3ccccc3n2)cc1F	ADRB2 (Homo sapiens, UniProt P07550, N148A)	β-arrestin2 recruitment, antagonist, BRET	HEK293	mutant N148A, added: isoprenaline 1 µM	–	IC50	1.58 µM
Cn1c(=O)c2[nH]cnc2n(C)c1=O	SYK tandem SH2 domains	binding, inhibitor, TR-FRET	–	added: FITC-FCER1G phospho-ITAM peptide	–	IC50	> 100 µM
Fc1cccc(-c2cc(CN3c4ccccc4C=Cc4ccccc43)on2)c1	Urease	enzyme activity, inhibitor	–	–	–	IC50	9.17 µM
CC(C)(C)n1ncc2c(=O)n(Cc3cccc(F)c3)c(NCc3ccc(Cl)cn3)nc21	PDE1C	enzyme activity, inhibitor, radiometric	–	–	–	IC50	0.0023 µM
Clc1cccc(-c2cc(CN3c4ccccc4C=Cc4ccccc43)on2)c1	Urease	enzyme activity, inhibitor	–	–	–	IC50	6.34 µM
COc1c(NC(=O)c2ccc(NC(=O)c3ccc(NC(=O)[C@H](CC#N)NC(=O)c4ccc(NC(=O)/C(C)=C/c5ccc(O)cc5)cc4)cc3)c(OC)c2O)ccc(C(=O)O)c1O	gyrA (Escherichia coli K-12, UniProt P0AES4)	enzyme activity, inhibitor	–	–	–	IC50	0.11 µM
CC(C)(COC(=O)/C=C/c1ccc(Cl)cc1)CC1=C(O)C(=O)c2ccccc2C1=O	MAL12 (Saccharomyces cerevisiae S288c, UniProt P53341)	enzyme activity, inhibitor	–	–	–	IC50	17.6 µM
O=C(N[C@@H](CCNC(=O)c1ccc([N+](=O)[O-])o1)c1nc2ccccc2[nH]1)c1ccc(-n2cnnn2)cc1	STING1 H232R	reporter gene, inhibitor	THP1-Dual KI-hSTING-R232	24 h, 1 h preincubation, added: diABZI 500 nM	–	EC50	> 40 µM
CN1CCN(c2ccc3cc(COC(=O)Nc4cccc(C(=O)NO)c4)ccc3c2)CC1	SNCA pre-formed fibrils	binding to RAGE, inhibitor, ELISA	–	added: FLAG-α-syn PFFs 100 nM	–	IC50	0.749 µM
COc1cc(O)c2c(c1)CCC21CCC(=O)CC1	rat intestinal maltase	inhibitor	rat intestinal acetone powder	10 min, 37 °C, added: maltose 10 mM	–	IC50	1350 ± 170 µM
COc1cc(OC)c2c(=O)cc(-c3cc(C)c(OCCCN4CCN(C)CC4)c(C)c3)oc2c1	Bromodomain-containing protein 2, BD2 (BRD2, Homo sapiens, UniProt P25440)	cell-free assay, TR-FRET	–	–	–	IC50	1.16 µM
C=CC(=O)Nc1cccc(Cn2ncc3cnc(Nc4cnn(CCOC)c4)nc32)c1	human MRCKA	KINOMEscan	–	100 nM	relative to: control	binding	100%
CCN(CC)Cc1ccc2cc(NC(=O)Nc3ccc(C(=O)NO)cc3)ccc2c1	SNCA pre-formed fibrils	binding to mouse LAG3 D1, inhibitor, ELISA	–	added: FLAG-α-syn PFFs 100 nM	–	IC50	8.05 µM
O=[N+]([O-])c1ccc(-c2cc(CN3c4ccccc4C=Cc4ccccc43)on2)cc1	Urease	enzyme activity, inhibitor	–	–	–	IC50	> 27 µM
CC(C)[C@H](NC(=O)[C@H](Cc1ccc(O)cc1)NC(=O)[C@H](CCC(N)=O)NC(=O)[C@@H](N)Cc1ccc(O)cc1)C(=O)N[C@@H](CO)C(=O)NCC(=O)NCC(=O)O	SUMO-activating enzyme (Homo sapiens, UniProt Q9UBE0+Q9UBT2)	SUMO thioester formation, Western blot	–	10 min, added: 1 µM SUMO	–	IC50	131 µM
C[S@@](=N)(=O)c1ccc(C(=O)Nc2cc(-c3ccc(F)cc3)ccc2N)cc1	Histone deacetylase (HDAC1 and HDAC2), in NuRD complex (HDAC1/HDAC2, Homo sapiens, UniProt Q13547+Q92769)	enzyme activity, inhibitor	–	–	–	IC50	> 100 µM
CN1CCCN(c2cnc3c(cc(C(=O)NCc4ccc(Cl)cc4)c(=O)n3CC(=O)N3CC(C)(F)C3)n2)C1=O	DNA polymerase catalytic subunit (Human cytomegalovirus, UniProt P08546)	enzyme activity	–	single determination	–	IC50	3.04 µM
COc1ccc(OC)c(CN2CCN(Cc3cc(OC)c(O)c(OC)c3)CC2)c1	Alpha-synuclein, fibrils (SNCA, Homo sapiens, UniProt P37840)	fibril growth, conformation-specific ELISA	–	20 h, added: 6 µM monomer	–	IC50	4 ± 2 µM

Repeated from above:
SMILES	tested on	test	system	setting	how to read	measurement	value
O=[N+]([O-])c1ccc(-c2cc(CN3c4ccccc4C=Cc4ccccc43)on2)cc1	Urease	enzyme activity, inhibitor	–	–	–	IC50	> 27 µM
Nc1ncc(-c2cc(-c3cnn(CC(F)(F)F)c3)ncc2F)nc1C(=O)NC1CNCC(F)C1 (stereo not drawn)	DCAMKL2	KINOMEscan	–	1 µM	relative to: DMSO control	remaining binding	100%
CC(C)(C)n1ncc2c(=O)n(Cc3cccc(F)c3)c(NCc3ccc(Cl)cn3)nc21	PDE1C	enzyme activity, inhibitor, radiometric	–	–	–	IC50	0.0023 µM
CC(C)[C@H](NC(=O)[C@H](Cc1ccc(O)cc1)NC(=O)[C@H](CCC(N)=O)NC(=O)[C@@H](N)Cc1ccc(O)cc1)C(=O)N[C@@H](CO)C(=O)NCC(=O)NCC(=O)O	SUMO-activating enzyme (Homo sapiens, UniProt Q9UBE0+Q9UBT2)	SUMO thioester formation, Western blot	–	10 min, added: 1 µM SUMO	–	IC50	131 µM
CC(C)C[C@H](NC(=O)[C@H](Cc1ccc(CN)cc1)NC(=O)[C@H](Cc1ccccc1)N=[N+]=[N-])C(=O)N[C@@H](CC1CCC2CCCCC2C1)C(=O)[C@@]1(C)CO1 (stereo partly drawn)	Proteasome subunit beta type-10	inhibitor, biochemical	–	–	–	IC50	0.206 µM
CCn1nc(Cl)c2c1-c1cnc(N)c(c1)O[C@H](C)c1cc(F)ccc1-c1nn(C)cc1C2	FRK (Homo sapiens, UniProt P42685)	enzyme activity, inhibitor, radiometric	–	–	–	IC50	0.895 µM
